Assay results of several laboratories.
Protocols differ between the studies behind these lines. ± gives the spread as reported.
rep main protease: Replicase polyprotein 1ab, main protease (rep, Severe acute respiratory syndrome coronavirus 2, UniProt P0DTD1)
uncharacterized protein: uncharacterized protein (Anopheles coluzzii, UniProt A0A6E8VQK1)
Spike glycoprotein: Spike glycoprotein (Severe acute respiratory syndrome coronavirus 2, UniProt P0DTC2)
gag-pol reverse transcriptase: Gag-Pol polyprotein, reverse transcriptase (gag-pol, Human immunodeficiency virus type 1 group M subtype B, UniProt P04585)
Sequence of UniProt P20782 (whole entry, looked up): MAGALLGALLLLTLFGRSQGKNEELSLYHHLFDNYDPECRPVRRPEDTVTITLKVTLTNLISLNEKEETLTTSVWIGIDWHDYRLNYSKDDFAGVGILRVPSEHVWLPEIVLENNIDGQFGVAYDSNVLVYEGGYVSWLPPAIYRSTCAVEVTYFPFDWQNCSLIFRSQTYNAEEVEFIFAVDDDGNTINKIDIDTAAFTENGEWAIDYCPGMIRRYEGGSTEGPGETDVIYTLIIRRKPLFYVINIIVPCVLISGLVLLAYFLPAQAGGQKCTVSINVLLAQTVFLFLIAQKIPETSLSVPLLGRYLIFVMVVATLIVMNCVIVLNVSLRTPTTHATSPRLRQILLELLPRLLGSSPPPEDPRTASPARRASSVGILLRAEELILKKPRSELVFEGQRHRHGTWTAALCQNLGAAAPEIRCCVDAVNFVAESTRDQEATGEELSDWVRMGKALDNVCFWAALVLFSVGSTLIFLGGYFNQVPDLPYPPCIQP
Sequence of UniProt P04756 (whole entry, looked up): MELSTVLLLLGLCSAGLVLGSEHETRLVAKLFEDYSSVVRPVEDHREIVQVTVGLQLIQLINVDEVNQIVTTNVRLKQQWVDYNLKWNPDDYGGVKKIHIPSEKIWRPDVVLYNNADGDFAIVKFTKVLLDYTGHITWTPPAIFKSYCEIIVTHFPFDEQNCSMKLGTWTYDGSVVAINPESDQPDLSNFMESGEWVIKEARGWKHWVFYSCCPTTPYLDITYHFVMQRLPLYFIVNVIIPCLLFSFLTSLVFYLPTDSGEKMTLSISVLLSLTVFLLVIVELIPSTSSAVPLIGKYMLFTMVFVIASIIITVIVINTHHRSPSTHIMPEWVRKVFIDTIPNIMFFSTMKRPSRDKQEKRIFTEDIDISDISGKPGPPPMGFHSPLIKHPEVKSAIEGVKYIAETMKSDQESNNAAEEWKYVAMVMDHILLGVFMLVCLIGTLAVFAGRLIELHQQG
Sequence of UniProt P02716 (whole entry, looked up): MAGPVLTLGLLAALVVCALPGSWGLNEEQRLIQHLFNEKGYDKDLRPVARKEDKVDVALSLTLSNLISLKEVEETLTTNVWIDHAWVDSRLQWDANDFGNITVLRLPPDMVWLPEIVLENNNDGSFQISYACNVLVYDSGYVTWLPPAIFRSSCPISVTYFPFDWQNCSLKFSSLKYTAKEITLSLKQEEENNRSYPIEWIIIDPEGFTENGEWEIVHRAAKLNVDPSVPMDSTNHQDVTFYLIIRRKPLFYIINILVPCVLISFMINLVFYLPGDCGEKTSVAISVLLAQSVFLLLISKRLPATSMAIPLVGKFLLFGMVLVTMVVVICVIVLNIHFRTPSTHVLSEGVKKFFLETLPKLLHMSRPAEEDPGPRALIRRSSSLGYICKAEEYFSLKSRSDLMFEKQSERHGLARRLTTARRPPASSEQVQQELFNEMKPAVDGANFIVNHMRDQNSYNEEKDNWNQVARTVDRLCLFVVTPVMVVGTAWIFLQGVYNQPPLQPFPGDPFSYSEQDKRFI

| SMILES | tested on | test | system | conditions | scale | measurement | value |
| --- | --- | --- | --- | --- | --- | --- | --- |
| Cc1cnc(F)c(C(=O)NC[C@@H]2c3ccccc3CCN2C(=O)c2cccc3[nH]ccc23)c1 | rep main protease | enzyme activity, inhibitor |  | 5 µM, run 2 |  | inhibition | 9% |
| CSCC[C@H](NC(=O)[C@H](CCCNC(=N)N)NC(=O)[C@H](Cc1ccccc1)NC(=O)[C@H](CS)NC(=O)[C@H](C)NC(=O)[C@@H](NC(=O)[C@@H](NC(=O)[C@H](C)NC(=O)[C@H](CCCNC(=N)N)NC(=O)[C@H](CCCNC(=N)N)NC(=O)[C@H](CCCNC(=N)N)NC(=O)[C@H](CCC(N)=O)NC(=O)[C@H](CCCCN)NC(=O)[C@H](CO)NC(=O)[C@H](CC(C)C)NC(=O)[C@H](CC(C)C)NC(=O)[C@H](CCCCN)NC(=O)[C@H](Cc1c[nH]cn1)NC(=O)[C@H](Cc1c[nH]c2ccccc12)NC(=O)[C@@H](NC(=O)[C@H](C)NC(=O)[C@H](CCCCN)NC(=O)[C@H](CCCCN)NC(=O)[C@H](CO)NC(=O)[C@H](CCCCN)NC(C)=O)C(C)C)C(C)C)C(C)C)C(=O)N[C@H](C(=O)N1CCC[C@H]1C(=O)N[C@@H](CC(C)C)C(=O)N[C@@H](Cc1ccc(O)cc1)C(=O)N[C@@H](CC(N)=O)C(N)=O)[C@@H](C)O | calmodulin 1-80 sites I and II | calcium binding, Phe fluorescence titration |  | 12 µM, pH 7.4, 22 °C, together with: 6 µM calmodulin |  | apparent ΔG1 | -6.93 ± 0.13 kcal/mol |
| CCOC(=O)CC(SP(=S)(OC)OC)C(=O)OCC (stereo not drawn) | uncharacterized protein | enzyme activity, inhibitor | Sf9 cell homogenate | 45.45 µM, 0.1667 h, together with: α-naphthyl acetate substrate | relative to: no inhibitor | remaining activity | 106% |
| COc1cc2c3cc1Oc1cc(ccc1O)C[C@@H]1c4c(cc(OC)c(O)c4Oc4ccc(cc4)C[C@@H]3N(C)CC2)CC[N+]1(C)C | Chrnd/Chrna1/Chrne (Mus musculus, UniProt P02716+P04756+P20782) |  | mouse diaphragm | 0.04 µM, AChE inhibited |  | free receptor reduction | 52% |
| CC(=O)c1ccc(NC2=C(Cl)C(=O)c3ccccc3C2=O)cc1 | rep main protease | viral replication, mKate2 reporter | SARS-CoV-2 | 20 µM |  | inhibition | -1.41% |
| CN1CCCC1c1cc(C(=O)N2C[C@@H](F)C[C@H]2CNC(=O)c2cc3c(=O)[nH]ccn3n2)n[nH]1 (stereo partly drawn) | rep main protease | inhibitor, high-throughput enzymatic |  | 5 µM, single run |  | inhibition | 7.3% |
| C=CCc1cc(OC)c2c(c1)OCO2 | rep main protease | reporter gene (Gaussia luciferase), inhibitor |  | 20 µM |  | inhibition | 0.796% |
| O=C(O[C@@H]1O[C@@H]2COC(=O)c3cc(O)c(O)c(O)c3-c3c(cc(O)c(O)c3O)C(=O)O[C@H]([C@H]1O)[C@@H]2O)c1cc(O)c(O)c(O)c1 | Spike glycoprotein | binding, BLI |  |  |  | Kd | 0.931 µM |
| O=C(CCn1cc[nH]c(=O)c1=O)N[C@@H]1CCCC12CN(C(=O)c1cccc3c1C(=O)NC3)C2 | rep main protease | enzyme activity, inhibitor |  | 5 µM, run 1 |  | inhibition | 12.8% |
| C[C@@H]1O[C@@H](O[C@H]2[C@H](O[C@H]3[C@H](O[C@H]4CC[C@@]5(C)[C@@H](CC[C@]6(C)[C@@H]5CC=C5[C@@H]7CC(C)(C)C[C@@H](O)[C@]7(C)CC[C@]56C)[C@@]4(C)CO)O[C@H](C(=O)O)[C@@H](O)[C@@H]3O)O[C@H](CO)[C@H](O)[C@@H]2O)[C@H](O)[C@H](O)[C@H]1O | rep main protease | reporter gene (mKate2), inhibitor |  | 20 µM |  | inhibition | -0.18% |
| O=C(N[C@@H](CNC(=O)[C@@H]1CCCc2[nH]cnc21)c1ccc2ccccc2c1)c1cncc(F)c1 | rep main protease | enzyme activity, inhibitor |  | 5 µM, mean of runs |  | inhibition | 11.6% |
| Nc1ccn([C@H]2C[C@H](O)[C@@H](COP(=O)(O)OP(=O)(O)OP(=O)(O)O)O2)c(=O)n1 | gag-pol reverse transcriptase | substrate |  | misinsertion opposite template T |  | Km | 101 ± 51.9 µM |
| O=C(Cn1ccnn1)NC[C@H](NC(=O)c1cncc2ccccc12)c1ccc2ccccc2c1 | rep main protease | enzyme activity, inhibitor |  | 5 µM, mean of runs |  | inhibition | 11.6% |
| CC[C@H](C)[C@H](NC(=O)[C@H](CC(C)C)NC(=O)[C@H](Cc1c[nH]c2ccccc12)NC(=O)[C@H](CCC(N)=O)NC(=O)[C@@H](NC(=O)[C@H](Cc1ccccc1)NC(=O)[C@H](C)NC(=O)[C@H](CCCCNC(=O)COCCOCCNC(=O)COCCOCCNC(=O)CC[C@H](NC(=O)CCCCCCCCCCCCCCCCCCC(=O)O)C(=O)O)NC(=O)[C@H](CCC(N)=O)NC(=O)[C@H](C)NC(=O)[C@@H](NC(=O)[C@H](CCCCN)NC(=O)[C@H](CC(=O)O)NC(=O)[C@H](CC(C)C)NC(=O)C(C)(C)NC(=O)[C@@H](NC(=O)[C@H](CO)NC(=O)[C@H](Cc1ccc(O)cc1)NC(=O)[C@H](CC(=O)O)NC(=O)[C@H](CO)NC(=O)[C@@H](NC(=O)[C@H](Cc1ccccc1)NC(=O)[C@@H](NC(=O)CNC(=O)[C@H](CCC(=O)O)NC(=O)C(C)(C)NC(=O)[C@@H](N)Cc1ccc(O)cc1)[C@@H](C)O)[C@@H](C)O)[C@@H](C)CC)[C@@H](C)CC)C(C)C)C(=O)N[C@@H](C)C(=O)NCC(=O)NCC(=O)N1CCC[C@H]1C(=O)N[C@@H](CO)C(=O)N[C@@H](CO)C(=O)NCC(=O)N[C@@H](C)C(=O)N1CCC[C@H]1C(=O)N1CCC[C@H]1C(=O)N1CCC[C@H]1C(=O)N[C@@H](CO)C(N)=O |  | item: anti-drug antibodies | healthy human subjects | 1.5 mg multiple ascending, baseline, evaluable subjects |  | subjects ADA-positive at baseline | 0% |
| Nc1nc2c(ncn2[C@H]2C[C@H](O)[C@@H](COP(=O)(O)OP(=O)(O)OP(=O)(O)O)O2)c(=O)[nH]1 | gag-pol reverse transcriptase | substrate |  | misinsertion opposite template T |  | Km | 12.7 ± 7.8 µM |
| COc1ccc(C[C@@H]2c3cc(Oc4cc(C[C@@H]5c6cc(O)c(OC)cc6CCN5C)ccc4O)c(OC)cc3CCN2C)cc1 | Spike glycoprotein | binding, BLI |  |  |  | Kd | 32.5 µM |
| Oc1ccc(C2=Cc3ccc(O)cc3OC2)cc1 | rep main protease | reporter gene (mKate2), inhibitor |  | 20 µM |  | inhibition | -0.0525% |

| SMILES | tested on | test | system | conditions | scale | measurement | value |
| --- | --- | --- | --- | --- | --- | --- | --- |
| O=C(c1ccc2c(c1)COC2)N1CCCC[C@H](C2CN(C(=O)c3cncc4[nH]cnc34)C2)C1 | rep main protease | enzyme activity, inhibitor |  | 5 µM, mean of runs |  | inhibition | 16.3% |
| CC1CCCN(CCCNC(=O)c2cc(Sc3ccc(F)cc3)nc3ccccc23)C1 (stereo not drawn) | SARS-CoV-2 | cytopathic effect | USA_WA1/2020 | first round 5-point |  | efficacy | 109% |
| O=c1oc2cc(O)cc(O)c2c2oc3cc(O)c(O)cc3c12 | rep main protease | reporter gene (mKate2), inhibitor |  | 20 µM |  | inhibition | -0.428% |
| CCN(CC)c1nc(C)cc(OP(=S)(OC)OC)n1 | uncharacterized protein | enzyme activity, inhibitor | Sf9 cell homogenate | 0.04587 µM, 0.1667 h, together with: α-naphthyl acetate substrate | relative to: no inhibitor | remaining activity | 112% |
| CC(C)=CCc1c(O)cc(O)c2c(=O)c(-c3ccc(O)cc3)coc12 | rep main protease | reporter gene (Gaussia luciferase), inhibitor |  | 20 µM |  | inhibition | 1.01% |
| Nc1ncnc2c([C@@H]3N[C@H](CO)[C@@H](O)[C@H]3O)c[nH]c12 | Marburg virus | viral replication | HeLa, Musoke | 50 µM |  | inhibition | 94% |
| CC[C@@H](Oc1nc(Oc2cccc(-c3cccc(CN)c3)c2)c(F)cc1F)C(=O)O | rep main protease | viral replication, mKate2 reporter | SARS-CoV-2 | 20 µM |  | inhibition | -0.428% |
| O=C(NC[C@H](NC(=O)c1cnoc1-c1ccccc1)c1ccc2ccccc2c1)c1cn[nH]n1 | rep main protease | enzyme activity, inhibitor |  | 5 µM, run 2 |  | inhibition | 13.8% |
| Cn1cnc(Cn2c(=O)[nH]/c(=N\c3cc4cn(C)nc4cc3Cl)n(Cc3cc(F)c(F)cc3F)c2=O)n1 |  |  | human, moderate renal impairment | oral, 375 mg, vessel puncture site haemorrhage TEAE, Mild severity |  | patients with adverse event | 12.5% |
| COc1ccc(-c2nc(CN3CCC(C(=O)NCCCN4CCN(c5ccccc5F)CC4)CC3)c(C)o2)cc1OC | SARS-CoV-2 | cytopathic effect, cell-based CPE | USA_WA1/2020 | round 2, 5-point dilution |  | AC50 | 8.91 µM |
| Cc1cn([C@H]2C=C[C@@H](COP(=O)(O)OP(=O)(O)OP(=O)(O)O)O2)c(=O)[nH]c1=O | Gag-Pol polyprotein, reverse transcriptase (gag-pol, Human immunodeficiency virus type 1 group M subtype B, UniProt P04585, K652A) | reverse transcriptase activity, inhibitor | HIV-1 |  | relative to: K65A mutant over wild type | fold resistance | 3 fold |
| Cc1cncc(C(=O)NC[C@H]2c3ccccc3CCN2C(=O)c2cccn3nnnc23)c1 | rep main protease | enzyme activity, inhibitor |  | 5 µM, mean of runs |  | inhibition | 28.4% |
| Nc1ncnc2c1ncn2[C@H]1C[C@H](O)[C@@H](COP(=O)(O)OP(=O)(O)OP(=O)(O)O)O1 | Gag-Pol polyprotein, reverse transcriptase (gag-pol, Human immunodeficiency virus type 1 group M subtype B, UniProt P04585, K653T) | substrate |  | K66T mutant, together with: G:A mismatched primer template |  | Km | 415 ± 263 µM |
| CNC(=O)[C@@H](NC(=O)[C@H](CC(C)C)[C@H](O)C(=O)NO)C(C)(C)C | C2C12 |  |  | 10 µM, together with: TN venom | relative to: venom alone | viability difference | 7.59% |
| C[C@@H]1CC[C@]2(C(=O)O[C@@H]3O[C@H](CO)[C@@H](O)[C@H](O)[C@H]3O)CC[C@]3(C)C(=CC[C@@H]4[C@@]5(C)C[C@@H](O)[C@H](O)C(C)(C)[C@@H]5CC[C@]43C)[C@@H]2[C@]1(C)O | rep main protease | reporter gene (Gaussia luciferase), inhibitor |  | 20 µM |  | inhibition | 1.77% |
| Cc1cn([C@H]2C[C@H](O)[C@@H](COP(=O)(O)OP(=O)(O)OP(=O)(O)O)O2)c(=O)[nH]c1=O | gag-pol reverse transcriptase | nucleotide misinsertion, steady-state kinetics |  | wild-type RT, together with: opposite template T |  | kcat | 0.0265 ± 0.00583 s⁻¹ |

Some of these lines once more:
| SMILES | tested on | test | system | conditions | scale | measurement | value |
| --- | --- | --- | --- | --- | --- | --- | --- |
| CNC(=O)[C@@H](NC(=O)[C@H](CC(C)C)[C@H](O)C(=O)NO)C(C)(C)C | C2C12 |  |  | 10 µM, together with: TN venom | relative to: venom alone | viability difference | 7.59% |
| C[C@@H]1CC[C@]2(C(=O)O[C@@H]3O[C@H](CO)[C@@H](O)[C@H](O)[C@H]3O)CC[C@]3(C)C(=CC[C@@H]4[C@@]5(C)C[C@@H](O)[C@H](O)C(C)(C)[C@@H]5CC[C@]43C)[C@@H]2[C@]1(C)O | rep main protease | reporter gene (Gaussia luciferase), inhibitor |  | 20 µM |  | inhibition | 1.77% |
